Experimental data gathered from unrelated publications.
Compare with care: the assays were run in different laboratories. Several values in a cell are separate wells, animals, samples, runs or records. ± gives the spread as reported.
B1: LMNA 389-572 (Homo sapiens, UniProt P02545-2); sequence looked up; chain LSPSPTSQRSRGRASSHSSQTQGGGSVTKKRKLESTESRSSFSQHARTSGRVAVEEVDEEGKFVRLRNKSNEDQSMGNWQIKRQNGDDPLLTYRFPPKFTLKAGQVVTIWAAGAGATHSPPTDLVWKAQNTWGCGNSLRTALINSTGEEVAMRKLVRSVTVVEDDEDEDGDDLLHHHHVSGSRR
B2: mdfA (Bacillus subtilis, UniProt O31597); chain MLFLHDVWVNWFEGEENGYNVCHFHEWRKEDTVELLDQVPLLRVPSVLFHYIENDLSELPKGLLEDVHQKSYIRKNHERTKLEYCFVVTDGIGILAVDTIGYTIPVRKSRLIPRQEQLVYEMVKDVEPETYEFEPKKLESSKEYHILSLAPEHVRGLTRKERQIKQLMFMALDQLKGLKNRAEIGYWYTEWNPHMYEQIKRMSFEEIWDMLYNETIEGWSDKHLAFCENLIKGQPFFEKLWEMENESKVN
B3: TIMP2 27-153 (Homo sapiens, UniProt P16035); sequence looked up; chain CSCSPVHPQQAFCNADVVIRAKAVSEKEVDSGNDIYGNPIKRIQYEIKQIKMFKGPEKDIEFIYTAPSSAVCGVSLDVGGKKEYLIAGKAEGDGKMHITLCDFIVPWDTLSTTQKKSLNHRYQMGCE
B4: histone H1.3 human; sequence looked up; chain SETAPLAPTIPAPAEKTPVKKKAKKAGATAGKRKASGPPVSELITKAVAASKERSGVSLAALKKALAAAGYDVEKNNSRIKLGLKSLVSKGTLVQTKGTGASGSFKLNKKAASGEGKPKAKKAGAAKPRKPAGAAKKPKKVAGAATPKKSIKKTPKKVKKPATAAGTKKVAKSAKKVKTPQPKKAAKSPAKAKAPKPKAAKPKSGKPKVTKAKKAAPKKK
B5: DLL4 27-400 G28S/F107L/I143F/H194Y/L206P/N257P/T271L/F280Y/S301R/Q305P (Homo sapiens, UniProt Q9NR61); sequence looked up; chain SSVFQLQLQEFINERGVLASGRPCEPGCRTFFRVCLKHFQAVVSPGPCTFGTVSTPVLGTNSFAVRDDSSGGGRNPLQLPLNFTWPGTFSLIIEAWHAPGDDLRPEALPPDALISKFAIQGSLAVGQNWLLDEQTSTLTRLRYSYRVICSDNYYGDNCSRLCKKRNDYFGHYVCQPDGNPSCLPGWTGEYCQQPICLSGCHEQNGYCSKPAECLCRPGWQGRLCNECIPHPGCRHGTCSTPWQCLCDEGWGGLYCDQDLNYCTHHSPCKNGATCRNSGPRSYTCTCRPGYTGVDCELELSECDSNPCRNGGSCKDQEDGYHCLCPPGYYGLHCEHSTLSCADSPCFNGGSCRERNQGANYACECPPNFTGSNCE
B6: human CKAP4; sequence looked up; chain MPSAKQRGSKGGHGAASPSEKGAHPSGGADDVAKKPPPAPQQPPPPPAPHPQQHPQQHPQNQAHGKGGHRGGGGGGGKSSSSSSASAAAAAAAASSSASCSRRLGRALNFLFYLALVAAAAFSGWCVHHVLEEVQQVRRSHQDFSRQREELGQGLQGVEQKVQSLQATFGTFESILRSSQHKQDLTEKAVKQGESEVSRISEVLQKLQNEILKDLSDGIHVVKDARERDFTSLENTVEERLTELTKSINDNIAIFTEVQKRSQKEINDMKAKVASLEESEGNKQDLKALKEAVKEIQTSAKSREWDMEALRSTLQTMESDIYTEVRELVSLKQEQQAFKEAADTERLALQALTEKLLRSEESVSRLPEEIRRLEEELRQLKSDSHGPKEDGGFRHSEAFEALQQKSQGLDSRLQHVEDGVLSMQVASARQTESLESLLSKSQEHEQRLAALQGRLEGLGSSEADQDGLASTVRSLGETQLVLYGDVEELKRSVGELPSTVESLQKVQEQVHTLLSQDQAQAARLPPQDFLDRLSSLDNLKASVSQVEADLKMLRTAVDSLVAYSVKIETNENNLESAKGLLDDLRNDLDRLFVKVEKIHEKV
UniProt Q64663, sequence (whole entry, unmodified, looked up): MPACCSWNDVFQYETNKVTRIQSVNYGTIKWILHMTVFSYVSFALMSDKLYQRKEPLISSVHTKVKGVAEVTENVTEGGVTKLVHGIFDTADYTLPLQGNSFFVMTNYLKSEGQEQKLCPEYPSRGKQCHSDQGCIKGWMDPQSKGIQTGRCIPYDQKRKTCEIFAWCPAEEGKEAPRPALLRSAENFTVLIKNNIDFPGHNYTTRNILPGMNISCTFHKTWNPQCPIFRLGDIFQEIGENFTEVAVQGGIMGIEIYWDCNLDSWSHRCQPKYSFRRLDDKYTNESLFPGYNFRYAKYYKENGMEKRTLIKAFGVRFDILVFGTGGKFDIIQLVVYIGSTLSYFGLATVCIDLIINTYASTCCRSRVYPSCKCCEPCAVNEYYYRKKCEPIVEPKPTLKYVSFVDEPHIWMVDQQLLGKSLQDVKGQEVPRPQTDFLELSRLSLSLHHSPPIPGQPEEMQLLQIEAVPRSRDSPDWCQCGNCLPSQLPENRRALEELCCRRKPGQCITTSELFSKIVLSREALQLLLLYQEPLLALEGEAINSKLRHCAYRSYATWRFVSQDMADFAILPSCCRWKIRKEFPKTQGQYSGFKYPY
UniProt P26368, sequence (whole entry, looked up): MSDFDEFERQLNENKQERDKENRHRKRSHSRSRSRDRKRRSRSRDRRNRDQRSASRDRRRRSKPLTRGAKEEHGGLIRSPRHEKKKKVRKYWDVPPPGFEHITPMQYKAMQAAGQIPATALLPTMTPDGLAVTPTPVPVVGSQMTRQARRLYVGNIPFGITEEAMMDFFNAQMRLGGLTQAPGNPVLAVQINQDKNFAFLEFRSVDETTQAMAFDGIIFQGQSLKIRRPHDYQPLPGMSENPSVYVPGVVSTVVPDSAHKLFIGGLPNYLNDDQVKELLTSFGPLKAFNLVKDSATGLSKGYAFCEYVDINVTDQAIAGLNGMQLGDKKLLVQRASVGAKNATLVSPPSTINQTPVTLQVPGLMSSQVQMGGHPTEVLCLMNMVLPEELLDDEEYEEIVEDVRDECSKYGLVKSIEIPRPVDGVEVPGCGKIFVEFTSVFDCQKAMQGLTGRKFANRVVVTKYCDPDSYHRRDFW
UniProt Q16531, sequence (whole entry, looked up): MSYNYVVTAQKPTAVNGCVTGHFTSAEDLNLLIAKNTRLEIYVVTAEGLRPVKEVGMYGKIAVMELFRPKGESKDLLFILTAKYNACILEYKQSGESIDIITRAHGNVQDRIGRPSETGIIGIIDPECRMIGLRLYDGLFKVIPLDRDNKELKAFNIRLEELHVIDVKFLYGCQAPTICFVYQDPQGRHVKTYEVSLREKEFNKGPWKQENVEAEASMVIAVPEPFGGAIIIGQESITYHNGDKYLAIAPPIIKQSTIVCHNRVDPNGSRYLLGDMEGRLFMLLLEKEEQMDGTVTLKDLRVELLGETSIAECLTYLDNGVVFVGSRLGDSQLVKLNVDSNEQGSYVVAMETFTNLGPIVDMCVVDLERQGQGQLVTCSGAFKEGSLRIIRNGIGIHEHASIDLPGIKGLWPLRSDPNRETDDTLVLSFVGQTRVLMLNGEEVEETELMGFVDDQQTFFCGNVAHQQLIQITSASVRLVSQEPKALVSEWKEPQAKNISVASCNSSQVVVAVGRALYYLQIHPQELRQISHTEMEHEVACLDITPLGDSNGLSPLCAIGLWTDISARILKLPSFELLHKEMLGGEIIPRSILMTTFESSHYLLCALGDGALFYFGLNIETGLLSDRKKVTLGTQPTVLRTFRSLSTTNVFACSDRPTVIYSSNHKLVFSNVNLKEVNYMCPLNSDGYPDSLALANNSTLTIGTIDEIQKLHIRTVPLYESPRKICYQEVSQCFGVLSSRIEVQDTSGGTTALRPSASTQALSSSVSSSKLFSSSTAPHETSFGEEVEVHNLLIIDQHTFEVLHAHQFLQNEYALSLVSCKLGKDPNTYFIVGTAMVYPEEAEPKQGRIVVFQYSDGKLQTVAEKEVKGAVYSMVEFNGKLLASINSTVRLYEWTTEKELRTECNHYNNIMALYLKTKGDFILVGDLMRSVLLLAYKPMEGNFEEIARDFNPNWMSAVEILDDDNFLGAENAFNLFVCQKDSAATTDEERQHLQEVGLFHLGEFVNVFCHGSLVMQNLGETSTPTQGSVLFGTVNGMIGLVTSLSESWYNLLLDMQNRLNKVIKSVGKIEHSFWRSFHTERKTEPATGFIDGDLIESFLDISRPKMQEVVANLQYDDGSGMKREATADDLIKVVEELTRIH
UniProt P12318, sequence (whole entry, looked up): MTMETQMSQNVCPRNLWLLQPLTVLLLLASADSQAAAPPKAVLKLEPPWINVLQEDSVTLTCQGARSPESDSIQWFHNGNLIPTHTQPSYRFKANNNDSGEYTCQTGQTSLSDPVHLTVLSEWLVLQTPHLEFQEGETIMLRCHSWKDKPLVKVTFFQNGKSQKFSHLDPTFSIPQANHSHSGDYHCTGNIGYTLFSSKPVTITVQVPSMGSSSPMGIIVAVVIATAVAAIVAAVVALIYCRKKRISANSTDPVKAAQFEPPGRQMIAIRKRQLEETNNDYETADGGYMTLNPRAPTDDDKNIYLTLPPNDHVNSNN
UniProt P22894, sequence (whole entry, looked up): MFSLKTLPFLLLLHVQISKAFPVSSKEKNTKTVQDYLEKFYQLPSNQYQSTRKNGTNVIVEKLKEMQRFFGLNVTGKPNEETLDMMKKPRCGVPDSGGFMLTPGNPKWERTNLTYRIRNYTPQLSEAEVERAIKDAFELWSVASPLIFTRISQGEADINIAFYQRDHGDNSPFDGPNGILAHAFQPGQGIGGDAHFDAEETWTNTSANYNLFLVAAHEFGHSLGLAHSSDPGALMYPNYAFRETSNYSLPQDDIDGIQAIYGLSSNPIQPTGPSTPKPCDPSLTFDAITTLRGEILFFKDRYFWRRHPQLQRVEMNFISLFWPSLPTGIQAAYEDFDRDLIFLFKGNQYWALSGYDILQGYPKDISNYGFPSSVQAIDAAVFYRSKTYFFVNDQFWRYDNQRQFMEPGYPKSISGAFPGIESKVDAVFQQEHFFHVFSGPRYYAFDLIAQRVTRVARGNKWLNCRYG
UniProt P01042, sequence (whole entry, looked up): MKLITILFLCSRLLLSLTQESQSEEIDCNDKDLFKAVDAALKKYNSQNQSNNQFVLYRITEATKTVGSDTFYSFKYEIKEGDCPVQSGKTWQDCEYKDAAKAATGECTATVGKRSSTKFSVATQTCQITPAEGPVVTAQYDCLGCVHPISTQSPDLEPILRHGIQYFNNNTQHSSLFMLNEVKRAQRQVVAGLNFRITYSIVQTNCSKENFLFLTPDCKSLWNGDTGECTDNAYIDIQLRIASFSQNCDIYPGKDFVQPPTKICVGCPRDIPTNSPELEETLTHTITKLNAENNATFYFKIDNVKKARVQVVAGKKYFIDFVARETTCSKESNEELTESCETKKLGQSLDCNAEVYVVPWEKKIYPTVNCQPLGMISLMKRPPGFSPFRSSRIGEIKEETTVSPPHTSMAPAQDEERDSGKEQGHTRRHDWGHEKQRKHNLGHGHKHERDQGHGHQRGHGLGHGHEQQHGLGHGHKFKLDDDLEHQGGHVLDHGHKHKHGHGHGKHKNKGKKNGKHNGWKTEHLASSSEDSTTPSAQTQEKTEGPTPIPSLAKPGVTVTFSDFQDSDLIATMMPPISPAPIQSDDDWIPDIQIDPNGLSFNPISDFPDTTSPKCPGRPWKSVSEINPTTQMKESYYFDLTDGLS
UniProt P30411, sequence (whole entry, looked up): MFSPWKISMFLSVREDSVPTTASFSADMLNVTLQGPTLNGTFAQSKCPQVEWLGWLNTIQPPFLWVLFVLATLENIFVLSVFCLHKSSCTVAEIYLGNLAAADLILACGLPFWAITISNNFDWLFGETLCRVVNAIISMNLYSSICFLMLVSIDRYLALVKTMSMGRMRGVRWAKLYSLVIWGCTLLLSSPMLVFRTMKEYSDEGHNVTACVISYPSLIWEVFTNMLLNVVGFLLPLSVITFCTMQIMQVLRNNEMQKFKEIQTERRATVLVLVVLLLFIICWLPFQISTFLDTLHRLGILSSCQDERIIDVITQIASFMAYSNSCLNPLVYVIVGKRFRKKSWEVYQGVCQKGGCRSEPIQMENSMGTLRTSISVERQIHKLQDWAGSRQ

| Substance | tested on | assay | system | setting | scale | quantity | value |
| --- | --- | --- | --- | --- | --- | --- | --- |
| GCUUUCUUU (ssRNA) | U2AF2 148-342 (Homo sapiens, UniProt P26368) | sequencing of bound RNA | RNA | motif only |  | Kd | 1180 nM |
| B1 (LMNA 389-572) | SREBF1 227-487 (Homo sapiens, UniProt P36956) | ITC |  | single-site fit |  | ΔH | -214 ± 31 kcal/mol |
| ACPFGCMKNWSAPIWCTNK (Bicycle 68 bicyclic peptide; C-terminal amide/TATA scaffold, three cysteines cyclised) | NECTIN4 32-349 (Homo sapiens, UniProt Q96NY8) | fluorescence polarisation | peptide |  |  | Ki | 310 nM |
| B2 (mdfA) | clpC N domain 1-150 (Bacillus subtilis, UniProt P37571) | ITC |  |  |  | ΔH | -4.66 kcal/mol |
| B3 (TIMP2 27-153) | MMP8 100-262 (Homo sapiens, UniProt P22894) | enzyme activity, inhibitor, fluorogenic peptide cleavage assay |  |  |  | Ki | 1.17 ± 0.09 nM |
| B4 (histone H1.3 human) | CYB5R4 knockout human cells | PP4 interaction, 3xFLAG-PP4C IP-MS |  | concentration not given | relative to: CYB5R4 KO over parental | log2 fold change | -1.68 |
| YIRLYDYHNC (peptide; linear, N-acetyl, C-terminal amide) | MAGEA4 (UniProt P43358) | competition with ligand, TR-FRET | peptide |  |  | IC50 | < 10000 nM |
| bradykinin (UniProt P01042) | BDKRB2 (Homo sapiens, UniProt P30411) | G12 BRET response | BDKRB2 cells |  |  | EC50 | 3.13 nM |
| BzATP | P2X purinoceptor 7 (P2rx7, Rattus norvegicus, UniProt Q64663) | ion current, agonist, two-electrode voltage clamp | Xenopus laevis oocytes | 0.14 µM | relative to: highest concentration response | normalized current | 0.00936 and 0.1 and 0.0173 |
| FGB (Homo sapiens, UniProt P02675) | ITIH2 (Homo sapiens, UniProt P19823) | cross-linking MS |  | added: DSSO |  | cross-linked residues | K374 to K810 |
| B5 | NOTCH3 EGF5-12 197-505 (Homo sapiens, UniProt Q9UM47) | SPR |  |  | relative to: WT, higher = stronger binding | affinity enhancement | 591 fold |
| trastuzumab-MMAE ADC IgG1 | FCGR2A (Homo sapiens, UniProt P12318) | BLI |  | ADC | relative to: unconjugated Trastuzumab, higher = weaker binding | KD fold increase | 1.4 fold |
| DDB1 (Homo sapiens, UniProt Q16531) | CDK12/CCNK | ternary complex induction by compounds, TR-FRET |  |  |  | EC50 | > 10000 nM |
| FGA (Homo sapiens, UniProt P02671) | PTPN18 (Homo sapiens, UniProt Q99952) | cross-linking MS |  | added: DSSO |  | cross-linked residues | K448 to K177 |
| B6 (human CKAP4) | CYB5R4 knockout human cells | PP4 interaction, 3xFLAG-PP4C IP-MS |  | concentration not given | relative to: CYB5R4 KO over parental | log2 fold change | -0.76 |
| CAMK2D F368A (Homo sapiens) | itself | mass photometry |  | 100 nM | higher = more tetramers | tetramers | 5% |
| ACTA1 (Gallus gallus, UniProt P68139) | MYH1 (Oryctolagus cuniculus, UniProt A0A5F9CQ93) | laser three-bead trap |  | added: ATP |  | binding event lifetime | 31 ms and 24 ms and 52 ms and 22 ms |
| ALB (Homo sapiens, UniProt P02768) | NLGN3 (Homo sapiens, UniProt Q9NZ94) | cross-linking MS |  | added: DSSO |  | cross-linked residues | K219 to K572 |

Some of these lines once more:
| Substance | tested on | assay | system | setting | scale | quantity | value |
| --- | --- | --- | --- | --- | --- | --- | --- |
| B6 (human CKAP4) | CYB5R4 knockout human cells | PP4 interaction, 3xFLAG-PP4C IP-MS |  | concentration not given | relative to: CYB5R4 KO over parental | log2 fold change | -0.76 |
